Measured values gathered from unrelated publications.
Every numbered part comes from another study and shows a few of its results, in no order. Substitutions count along the parent as printed.

Sample 1
Target: Ras GTPase-activating protein-binding protein 1, RRM domain (G3BP1, Homo sapiens, UniProt Q13283)
Sequence of UniProt Q13283 (whole entry, looked up): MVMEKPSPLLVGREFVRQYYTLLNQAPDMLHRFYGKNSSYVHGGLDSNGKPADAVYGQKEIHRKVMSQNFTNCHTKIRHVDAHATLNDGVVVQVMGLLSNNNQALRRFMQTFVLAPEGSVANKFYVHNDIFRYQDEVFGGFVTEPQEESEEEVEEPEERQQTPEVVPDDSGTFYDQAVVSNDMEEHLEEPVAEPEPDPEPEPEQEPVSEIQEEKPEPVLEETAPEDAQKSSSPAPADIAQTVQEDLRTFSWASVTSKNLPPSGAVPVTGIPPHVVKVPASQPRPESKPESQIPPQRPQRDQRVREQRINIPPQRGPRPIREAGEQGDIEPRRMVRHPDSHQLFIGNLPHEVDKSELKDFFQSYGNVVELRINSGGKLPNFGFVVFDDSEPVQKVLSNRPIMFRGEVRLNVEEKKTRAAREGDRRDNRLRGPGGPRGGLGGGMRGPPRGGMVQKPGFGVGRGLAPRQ
Technique: RNA Bind-n-Seq
Form: RNA
Matrix: in vitro
Concentration: 1 µM
Setting: whole 134-nt RNA, ends assumed
Added: 150 mM KCl
Reference: input library
Direction: higher = stronger binding
Constant ends, left off below: GGGAGUUCUACAGUCCGACGAUC … UGGAAUUCUCGGGUGUCAAGG
Strand | log2 enrichment
UGUCCUGCAGGGUCGGACCGAUACCUGGAGAGCCGCGAUGCCUCUCGACUGAGUGGCCGGGACCCCUCCUCAUGGACAGUCGAGGAUGUG | -0.778
UAACUUUAGAGGAGGAUCUGAUGGAUAUGGCAGUGGACGUGGAUGUGGGGAUGGCUAUAAUGGGUAUGGAGGAGGACCUGGAGGUGGCAA | -0.578
AAGUCCUGUGCUACACAUCGUAUGUACCGAAUCGGUUUGGUUUUUUUGGAAAAAGGAAAGUAUUAUGUUACGCCGUUCGGAUCUGCACUU | -0.209
CCUCAAGUCCUGUGCUACACAUCGUAUGUACCGAAUCGGGGCGGCGGGGCGGGAAAGUAUUAUGUUACGCCGUUCGGAUCUGCACUUCCA | -0.0113
UGGCCCUGGUGGCAUGCGGGGAGCAAGAGGUGGCCUCAUGGAUCGUGGUGGUCCCGGUGGAAUGUUCAGAGGUGGCCGUGGUGGAGACAG | 0.995
CUCAAGUCCUGUGCUACACAUCGUAUGUACCGAAUCGGGGAGGGAGGGAGGGGAAAGUAUUAUGUUACGCCGUUCGGAUCUGCACUUCCA | 0.657
AAGUCCUGUGCUACACAUCGUAUGUACCGAAUCGGGUGGGAAAAAGGGUUUUUGGGAAAGUAUUAUGUUACGCCGUUCGGAUCUGCACUU | 0.624
ACCAUGCAGGUGGGCAUCUUUGGGAAGUGGGGCAAGGGGGGGAUAGGGAGGGGCGUAACACUUUGGGAACAGGUGGUCCCAGGUCGUUUC | 0.932
GUCCUGUGCUACACAUCGUAUGUACCGAAUCGGGGAGGGGUUUUUUUGGGGAAAGGGGAAAGUAUUAUGUUACGCCGUUCGGAUCUGCAC | 1.04

Sample 2
Target: Interferon regulatory factor 7, full length, phosphomimetic (IRF7, Homo sapiens, UniProt Q92985, residues 1-503, S101K/S471D/S472D/S475D/S476D/S477D/S483D/S484D/S487D)
Sequence of UniProt Q92985 (whole entry, unmodified, looked up): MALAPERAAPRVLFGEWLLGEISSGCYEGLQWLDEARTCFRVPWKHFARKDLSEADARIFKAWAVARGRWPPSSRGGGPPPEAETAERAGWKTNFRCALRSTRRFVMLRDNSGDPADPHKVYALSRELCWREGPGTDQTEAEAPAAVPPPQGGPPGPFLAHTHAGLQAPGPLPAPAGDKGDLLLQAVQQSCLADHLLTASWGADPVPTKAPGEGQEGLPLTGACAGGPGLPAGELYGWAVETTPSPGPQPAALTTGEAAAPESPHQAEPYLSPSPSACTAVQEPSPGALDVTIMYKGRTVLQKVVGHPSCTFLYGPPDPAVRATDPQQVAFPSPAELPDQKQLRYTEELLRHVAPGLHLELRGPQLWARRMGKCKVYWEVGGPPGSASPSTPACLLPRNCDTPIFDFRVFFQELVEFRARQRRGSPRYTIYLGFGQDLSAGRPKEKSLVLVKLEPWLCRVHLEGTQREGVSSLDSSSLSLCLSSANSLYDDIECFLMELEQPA
Technique: protein-binding microarray
Form: double-stranded DNA, one strand shown
Matrix: in vitro
Concentration: 250 nM
Setting: 60-bp whole probe
Added: salmon DNA 0.4 mg/ml
Reference: random background probes
Direction: higher = stronger binding
Constant ends, left off below: GCCTAGCAC … GTCTTGATTCGCTTGACGCTGCTG
Strand | log fluorescence
TCAGGTCTCGCTATGTTACTGTGCTAG | 0.91 z-score
CTAGATTTCAGTCTCGATTAGTGCTAG | 2.22 z-score
GAGACTTTGCTCTGTGCATAGGTGCTA | -0.387 z-score
GACGGACTGGGGTTTCCGGACGTGCTA | -0.303 z-score
GACGGTATCGGTATCGGGCCGTGCTAG | 0.809 z-score
TCAATTTTTAGGATGGGACTGTGCTAG | 0.127 z-score
TCACTTCCCAATAATCTTACTGTGCTA | 1.41 z-score
GACGATCTCAGACGGGAGACGTGCTAG | -0.271 z-score
GAACCTTGGGCTCTAGGTTCGTGCTAG | 1.33 z-score
TCAGGTTTCTGGTTTATACTGTGCTAG | 4.58 z-score
TTAGGTCTCCTTATCCTTAAGTGCTAG | 0.764 z-score
TTAGGTATCGACTTTCGGTTTGTGCTA | 6.08 z-score
GGCTCTCTGGACTGTGTGTTTGTGCTA | -0.654 z-score
GAAGGACTGCTTCTCCTGACGTGCTAG | 0.498 z-score
GACGGTTTTCTACTGCTGACGTGCTAG | 0.841 z-score
CTTTTATGCTCTTTCTACATGTGCTAG | 1.64 z-score
TTCGAACTGAGTTTCGATTAGTGCTAG | 7.61 z-score

Sample 3
Target: ABI1, truncated, D143A, DHFR fusion (Arabidopsis thaliana)
Technique: DHFR PCA, deep sequencing
Matrix: yeast
Setting: methotrexate growth selection, single substitutions
Added: (+)-ABA 58 µM
Reference: wild-type fitted maximum
Direction: higher = stronger binding
Parent: PYL1, truncated, DHFR fusion (Arabidopsis thaliana); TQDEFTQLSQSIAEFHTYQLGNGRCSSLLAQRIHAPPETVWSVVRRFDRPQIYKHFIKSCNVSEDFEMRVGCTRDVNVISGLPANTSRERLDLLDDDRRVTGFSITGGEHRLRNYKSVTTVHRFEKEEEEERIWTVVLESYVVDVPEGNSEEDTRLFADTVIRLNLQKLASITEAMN
Change | relative binding score [%]
N61E | 90.4
E14N | 62.2
F5Y | 80.1
H110G | 26.9
V44P | -37.5
Q19A | 87.6
I33L | 14.9
E125T | 91.1
F157D | 7.63
L29D | -13.5
T6D | 92.6
A30G | 81
G23P | 43
S11V | 93.2

Sample 4
Target: CCNA2, cyclin fold, Cln2 fusion (human)
Technique: yeast growth competition, sequencing
Matrix: yeast
Setting: strong parent motif
Reference: not given
Direction: higher = stronger binding
Parent: E2F1 docking peptide (human); PPVKRRLDLETDH; partner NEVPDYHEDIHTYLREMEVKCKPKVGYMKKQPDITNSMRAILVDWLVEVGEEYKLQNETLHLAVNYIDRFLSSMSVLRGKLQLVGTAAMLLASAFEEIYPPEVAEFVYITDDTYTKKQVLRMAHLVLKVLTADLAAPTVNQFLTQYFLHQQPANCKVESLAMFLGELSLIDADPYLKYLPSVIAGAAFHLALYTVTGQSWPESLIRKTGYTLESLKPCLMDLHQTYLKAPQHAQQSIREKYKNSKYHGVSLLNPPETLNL
Change | normalised enrichment score
T11M | 4.2
H13G | 4.77
R5V | -0.162
L7D | 0.42
D12W | 4.23
L7V | 0.236
H13Y | 5
P2L | 2.6
K4C | 4.14
D12Y | 5.93
E10L | 3.23
V3E | 0.233
R5C | 0.393
P2S | 3.99
P2R | 3.92

Sample 5
Target: RNA binding protein fox-1 homolog 2, RRM domain, GST-SBP tag (RBFOX2, Homo sapiens, UniProt O43251-10, residues 100-194)
Technique: RNA Bind-n-Seq
Form: RNA
Matrix: in vitro
Concentration: 365 nM
Setting: natural RNA segment, single round, ends assumed
Reference: no-protein control
Direction: higher = stronger binding
Constant ends, left off below: GGGAGUUCUACAGUCCGACGAUC … UGGAAUUCUCGGGUGCCAA
Target sequence (chain): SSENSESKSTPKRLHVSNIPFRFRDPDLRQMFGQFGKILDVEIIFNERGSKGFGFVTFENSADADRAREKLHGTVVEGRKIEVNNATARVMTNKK
Strand | RBNS enrichment (R)
GUUUUCUCCCAGACACACCACACCUACCUUGGGGGAAUGCCGUUGCCUGUUCCACCCCUUUGUUCACUUCGCGUUAACUGCUGUGGUAACUUUUUCAGGAUCUGUGUGAA | 2.17
UUCCCGUCCUCCCGCAGUCAGAAAGGAGACUCUGCCUCCCUCCUCCUCACUGAGUGCCUCAUCCUACCGGGUGUCCCUUUGCCACCCUGCCUGGGACAUCGCUGGAACCU | 0.565
AGCCACCAUGUGGUUGCUUUAAGAUUUAUGUAUAUGAGUACACUGUGGCUGUCUCAGACACACCAGAAGAGGGCAUCAGAUCCCAUUACAGAUGGUUGUGAGCCACCAUG | 0.296
UUAUAUUGAUCUUACCAAAUCAACACCACACAUAUUUAUUCUAACUAUAAAAAGCAAUAAAUGCAAACAAAACAAAAAAGUUCAUGGUAAAAUGACGGAAUCAGCAUGUG | 15.8
UCAGGUUCUGACAAGGUGCAAAGCGUGGGGAGGCUCUGAGGAAUAUGAAGAGUGGGAAGGCGGCCUAGGCUCCAUGGGCCACUAUGAGAAAUAGCCUCUCUUUCCUGGGA | 0.379
GCAGGUUAGCGUUGAAGGUGGUAUGGAAAAGCCUGCAUGCCUGUUCAAUUCUUUUGUUUCUUCUCCUUCCCCCUCCCCCUACCUCCUUCCCCUCACUCCUCCCCUCCUUC | 14.4
CAAGCAGGGCUAAGGCACCUUGAACUAGCCAGAUGCAAACAUAGAUUCACUGUGCUUUCCUUUCAAAUCCAGUUCUUCCACAGCAACUAGCCCAUAGUCAGUCUGUGUUC | 0.373
UGAGGAUGUGUGUAGCUCAGUUGGUAGACUGAUUGCCCUACAUGAACGGGACUGAAUUUGAUCACCAGCCCCACAAACCAUUCUCAAUGGUCAAUGGUUGUAAUCCCAGC | 1.28
UGCCACUCAGAGCCCCUGAGUGAGCCCCCUGGAAUUGUCUGCACCCCCCAAGCCCCAACAGGAAGAAGGGAAAGGUGGGGAAGCUGACGCUCACUCAGUGCCCACUGGGU | 0.292
AACUCUUUGUAGUUUUGUCAAAGACAAAUACUCUGUAAAGUCCCCCACCUACCCCAGAUCUACAGCUUUUUAGCUUUUAAUUUGAAUCAUCUGCAUAGUUGCUUGGAUCA | 0.387
UCCACUGAGGCAGUUUCUGGUACUCCUAUGCAAUAUUACUUAGCUUUUUUAUUGUAAAAAGAGAAUCAACUCAACUGUCAGUACUGAGAAGGGAUUUGGGUGUAGGGGCA | 2.24
CAAAUGGUGCUGCUACUGGAUCAGAUUGUGAACGGUUAACUCUGCCCUGAAGUGGGGGUGCGGGAAUGGGGAGGCUUCCCCUUUAGUGACUCAUGUCCCAGGUCUAAGAA | 0.605
